Results collected from several papers.
Each numbered part is a random draw from the data of one study; scales do not carry over between parts. Values joined by “and” are separate records of one study, mostly repeats; a detail may differ.
UniProt P10721, sequence (whole entry, unmodified, looked up): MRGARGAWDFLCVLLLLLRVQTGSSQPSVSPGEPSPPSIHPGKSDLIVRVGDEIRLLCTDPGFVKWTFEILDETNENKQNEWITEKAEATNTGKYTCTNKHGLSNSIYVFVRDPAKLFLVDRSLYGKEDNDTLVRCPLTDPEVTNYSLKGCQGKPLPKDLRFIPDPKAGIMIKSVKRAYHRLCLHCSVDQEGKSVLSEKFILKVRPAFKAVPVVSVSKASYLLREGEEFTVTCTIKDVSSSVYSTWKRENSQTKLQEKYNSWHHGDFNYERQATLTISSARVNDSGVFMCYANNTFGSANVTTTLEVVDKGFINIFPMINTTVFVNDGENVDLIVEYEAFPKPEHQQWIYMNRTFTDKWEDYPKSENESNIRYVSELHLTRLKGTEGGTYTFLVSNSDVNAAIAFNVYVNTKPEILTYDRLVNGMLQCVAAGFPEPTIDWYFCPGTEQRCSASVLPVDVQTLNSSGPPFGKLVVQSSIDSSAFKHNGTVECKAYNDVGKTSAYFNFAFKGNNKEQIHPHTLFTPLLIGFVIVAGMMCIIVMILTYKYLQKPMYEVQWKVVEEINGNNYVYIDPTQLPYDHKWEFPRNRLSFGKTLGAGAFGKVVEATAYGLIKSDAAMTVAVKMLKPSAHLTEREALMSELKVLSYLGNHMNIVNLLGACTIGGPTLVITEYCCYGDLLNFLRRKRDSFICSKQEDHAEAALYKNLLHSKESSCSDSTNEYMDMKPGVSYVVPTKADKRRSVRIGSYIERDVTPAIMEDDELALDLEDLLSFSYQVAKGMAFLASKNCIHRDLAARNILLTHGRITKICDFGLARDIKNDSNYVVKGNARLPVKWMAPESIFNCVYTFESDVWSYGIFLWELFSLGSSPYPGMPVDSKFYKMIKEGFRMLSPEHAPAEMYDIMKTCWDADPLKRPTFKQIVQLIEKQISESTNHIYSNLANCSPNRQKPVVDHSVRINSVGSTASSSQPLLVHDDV
UniProt Q15746, sequence (whole entry, looked up): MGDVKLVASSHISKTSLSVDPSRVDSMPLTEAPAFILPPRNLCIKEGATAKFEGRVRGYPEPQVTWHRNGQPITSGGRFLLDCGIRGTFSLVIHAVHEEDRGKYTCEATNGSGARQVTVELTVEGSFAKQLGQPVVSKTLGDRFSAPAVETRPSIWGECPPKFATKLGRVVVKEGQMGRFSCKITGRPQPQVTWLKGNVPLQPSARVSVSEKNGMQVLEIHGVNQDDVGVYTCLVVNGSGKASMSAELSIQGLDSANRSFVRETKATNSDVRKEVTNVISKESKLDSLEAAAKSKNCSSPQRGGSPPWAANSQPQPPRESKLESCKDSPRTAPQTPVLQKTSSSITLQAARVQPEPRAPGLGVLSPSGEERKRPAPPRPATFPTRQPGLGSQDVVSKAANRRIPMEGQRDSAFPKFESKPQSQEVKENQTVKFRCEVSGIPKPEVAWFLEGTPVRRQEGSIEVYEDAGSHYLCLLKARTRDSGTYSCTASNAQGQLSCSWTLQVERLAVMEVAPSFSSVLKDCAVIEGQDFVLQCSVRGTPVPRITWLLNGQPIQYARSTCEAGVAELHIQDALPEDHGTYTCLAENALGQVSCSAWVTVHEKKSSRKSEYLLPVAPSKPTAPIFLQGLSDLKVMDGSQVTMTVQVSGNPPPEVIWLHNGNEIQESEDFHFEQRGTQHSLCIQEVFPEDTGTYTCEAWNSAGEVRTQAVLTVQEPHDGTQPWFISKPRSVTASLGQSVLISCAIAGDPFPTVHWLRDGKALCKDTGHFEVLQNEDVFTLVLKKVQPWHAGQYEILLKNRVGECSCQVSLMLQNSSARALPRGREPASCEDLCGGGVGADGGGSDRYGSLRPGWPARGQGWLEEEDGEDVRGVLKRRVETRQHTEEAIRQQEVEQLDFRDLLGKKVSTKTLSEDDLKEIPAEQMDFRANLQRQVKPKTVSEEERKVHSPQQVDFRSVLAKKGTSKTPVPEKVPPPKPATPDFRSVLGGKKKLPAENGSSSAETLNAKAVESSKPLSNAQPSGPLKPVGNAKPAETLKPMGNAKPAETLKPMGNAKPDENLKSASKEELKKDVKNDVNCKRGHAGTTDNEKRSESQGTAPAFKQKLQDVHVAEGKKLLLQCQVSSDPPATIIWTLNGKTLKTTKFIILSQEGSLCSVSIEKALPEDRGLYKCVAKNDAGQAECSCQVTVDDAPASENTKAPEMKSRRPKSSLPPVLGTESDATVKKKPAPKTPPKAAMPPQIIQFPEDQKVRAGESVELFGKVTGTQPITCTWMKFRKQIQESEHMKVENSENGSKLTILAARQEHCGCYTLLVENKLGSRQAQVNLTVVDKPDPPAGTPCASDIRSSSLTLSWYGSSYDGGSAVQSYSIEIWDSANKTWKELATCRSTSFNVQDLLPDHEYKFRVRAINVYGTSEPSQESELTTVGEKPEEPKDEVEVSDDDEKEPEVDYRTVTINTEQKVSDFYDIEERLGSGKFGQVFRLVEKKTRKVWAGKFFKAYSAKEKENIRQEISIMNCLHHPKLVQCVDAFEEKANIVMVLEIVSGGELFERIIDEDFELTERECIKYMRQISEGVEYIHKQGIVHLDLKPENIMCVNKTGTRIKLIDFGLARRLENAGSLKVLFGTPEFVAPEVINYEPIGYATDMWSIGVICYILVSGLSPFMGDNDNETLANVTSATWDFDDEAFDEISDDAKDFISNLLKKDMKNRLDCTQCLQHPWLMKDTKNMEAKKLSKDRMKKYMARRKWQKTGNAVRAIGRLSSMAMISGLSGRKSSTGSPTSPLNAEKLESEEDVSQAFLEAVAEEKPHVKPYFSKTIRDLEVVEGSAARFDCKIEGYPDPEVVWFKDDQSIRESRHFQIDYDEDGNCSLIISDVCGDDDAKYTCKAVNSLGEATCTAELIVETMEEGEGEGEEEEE
UniProt O75460, sequence (whole entry, looked up): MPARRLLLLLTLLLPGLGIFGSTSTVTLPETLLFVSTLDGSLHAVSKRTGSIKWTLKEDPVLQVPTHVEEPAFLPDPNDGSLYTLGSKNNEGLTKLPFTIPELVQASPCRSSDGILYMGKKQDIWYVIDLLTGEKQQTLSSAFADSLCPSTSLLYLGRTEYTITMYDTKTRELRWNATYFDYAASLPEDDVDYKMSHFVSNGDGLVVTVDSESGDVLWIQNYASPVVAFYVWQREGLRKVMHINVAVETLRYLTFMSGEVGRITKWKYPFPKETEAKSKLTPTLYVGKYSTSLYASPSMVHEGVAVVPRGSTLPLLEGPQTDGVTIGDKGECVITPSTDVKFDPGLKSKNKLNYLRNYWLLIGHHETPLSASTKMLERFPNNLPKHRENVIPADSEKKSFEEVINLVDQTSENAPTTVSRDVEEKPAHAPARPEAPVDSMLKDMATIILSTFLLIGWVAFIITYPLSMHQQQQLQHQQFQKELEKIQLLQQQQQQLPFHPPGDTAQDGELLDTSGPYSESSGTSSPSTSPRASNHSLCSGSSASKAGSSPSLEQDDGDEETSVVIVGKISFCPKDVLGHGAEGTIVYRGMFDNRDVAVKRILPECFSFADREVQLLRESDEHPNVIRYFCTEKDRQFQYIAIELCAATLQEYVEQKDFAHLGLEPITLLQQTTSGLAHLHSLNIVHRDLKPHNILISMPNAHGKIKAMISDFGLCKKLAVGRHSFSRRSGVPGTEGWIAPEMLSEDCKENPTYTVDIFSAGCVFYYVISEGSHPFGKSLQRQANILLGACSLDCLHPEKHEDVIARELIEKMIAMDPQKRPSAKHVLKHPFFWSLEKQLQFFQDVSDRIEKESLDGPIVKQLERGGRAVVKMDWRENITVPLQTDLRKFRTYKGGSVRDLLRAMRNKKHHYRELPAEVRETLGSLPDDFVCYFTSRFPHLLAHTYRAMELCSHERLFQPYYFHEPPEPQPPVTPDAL
UniProt P48729, sequence (whole entry, looked up): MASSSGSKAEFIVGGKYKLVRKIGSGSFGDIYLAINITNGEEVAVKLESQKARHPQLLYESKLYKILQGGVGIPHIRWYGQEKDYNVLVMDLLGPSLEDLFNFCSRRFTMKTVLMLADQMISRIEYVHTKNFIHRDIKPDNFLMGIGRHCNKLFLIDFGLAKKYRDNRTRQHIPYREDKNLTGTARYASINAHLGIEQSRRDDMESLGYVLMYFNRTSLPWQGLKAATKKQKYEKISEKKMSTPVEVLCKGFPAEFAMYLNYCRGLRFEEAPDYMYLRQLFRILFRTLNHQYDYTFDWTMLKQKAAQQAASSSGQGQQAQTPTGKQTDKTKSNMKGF
UniProt Q00532, sequence (whole entry, looked up): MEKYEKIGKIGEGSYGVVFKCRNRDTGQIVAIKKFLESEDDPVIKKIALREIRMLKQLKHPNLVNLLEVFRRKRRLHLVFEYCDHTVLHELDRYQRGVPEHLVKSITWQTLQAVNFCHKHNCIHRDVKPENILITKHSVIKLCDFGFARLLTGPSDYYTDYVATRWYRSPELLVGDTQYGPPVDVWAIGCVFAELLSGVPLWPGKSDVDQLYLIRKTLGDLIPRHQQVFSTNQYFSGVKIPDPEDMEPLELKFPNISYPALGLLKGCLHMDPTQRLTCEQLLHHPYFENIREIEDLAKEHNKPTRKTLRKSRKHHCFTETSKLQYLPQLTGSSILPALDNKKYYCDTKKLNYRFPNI
UniProt P31749, sequence (whole entry, looked up): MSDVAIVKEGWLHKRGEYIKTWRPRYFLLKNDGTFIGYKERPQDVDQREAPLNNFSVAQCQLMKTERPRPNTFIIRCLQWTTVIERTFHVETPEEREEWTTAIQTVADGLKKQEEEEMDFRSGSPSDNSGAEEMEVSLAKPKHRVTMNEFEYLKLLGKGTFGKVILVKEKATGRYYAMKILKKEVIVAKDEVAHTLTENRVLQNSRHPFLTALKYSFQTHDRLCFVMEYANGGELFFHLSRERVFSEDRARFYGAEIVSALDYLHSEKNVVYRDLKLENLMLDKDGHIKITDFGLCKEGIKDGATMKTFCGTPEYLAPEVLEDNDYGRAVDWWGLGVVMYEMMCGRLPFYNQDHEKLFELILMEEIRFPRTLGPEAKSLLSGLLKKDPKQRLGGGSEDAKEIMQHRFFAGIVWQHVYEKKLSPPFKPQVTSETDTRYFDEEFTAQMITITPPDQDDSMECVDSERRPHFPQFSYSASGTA

Series 1 — species: human; medium: microsomes or S9; concentration: 2 µM; time: 0.5 h
SMILES	remaining compound
Cc1nnc2ccc(N3CCNc4ccccc4C3)nn12	72.1%
Cc1oc(C)c(C(=O)OC(C)C(=O)N2CC(C)OC(C)C2)c1Br (centres unmarked)	82.3%
c1ccc2c(c1)CC(N1CCCCC1)c1ccccc1N2 (centres unmarked)	58.8%
CSc1c(C(C)=O)c(=O)nc2scc(C)n12	45.3%
CN(C(=O)CN1C(=O)COc2cc(Cl)c(Cl)cc21)C(CN1CCCC1)c1ccc(Br)cc1 (centres unmarked)	> 100%

Series 2 — effect on: cell-free assay; method: competition with immobilised ligand; concentration: 1 µM
SMILES: CN([C@@H]1CCc2c(CC(=O)O)c3cc(S(C)(=O)=O)ccc3n2C1)S(=O)(=O)c1ccc(F)cc1
target	remaining binding [%]
CDKL1 (Homo sapiens, UniProt Q00532)	100
CIT (Homo sapiens, UniProt O14578)	96
Ribosomal protein S6 kinase alpha-4, C-terminal kinase domain (RPS6KA4, Homo sapiens, UniProt O75676)	97
MYLK (Homo sapiens, UniProt Q15746)	94
SNRK (Homo sapiens, UniProt Q9NRH2)	100
DDR1 (Homo sapiens, UniProt Q08345)	100
PLK2 (Homo sapiens, UniProt Q9NYY3)	90
MET (Homo sapiens, UniProt P08581)	100
CSNK1A1 (Homo sapiens, UniProt P48729)	100
EPHA5 (Homo sapiens, UniProt P54756)	78
KIT (Homo sapiens, UniProt P10721, D816V)	95
PIK3C2B (Homo sapiens, UniProt O00750)	100
Ribosomal protein S6 kinase alpha-2, C-terminal kinase domain (RPS6KA2, Homo sapiens, UniProt Q15349)	100
CAMK2A (Homo sapiens, UniProt Q9UQM7)	100
TNK2 (Homo sapiens, UniProt Q07912)	92
STK4 (Homo sapiens, UniProt Q13043)	97
PKN1 (Homo sapiens, UniProt Q16512)	90
Ribosomal protein S6 kinase alpha-3, N-terminal kinase domain (RPS6KA3, Homo sapiens, UniProt P51812)	80
AKT1 (Homo sapiens, UniProt P31749)	100
KIT (Homo sapiens, UniProt P10721, V559D/V654A)	100
MAP3K14 (Homo sapiens, UniProt Q99558)	76
HIPK2 (Homo sapiens, UniProt Q9H2X6)	100
CDKL5 (Homo sapiens, UniProt O76039)	93
PIK3CD (Homo sapiens, UniProt O00329)	100
RIPK1 (Homo sapiens, UniProt Q13546)	93

Series 3 — effect on: binding; concentration: 1 µM
Compound: Cc1ccc(NC(=O)c2ccnc(C(F)(F)F)c2)cc1-c1cc(OCCO)nc(N2CCOCC2)c1
target	method	remaining binding [%]
ERN1 (Homo sapiens, UniProt O75460)	–	71
NTRK2 (Homo sapiens, UniProt Q16620)	competition with immobilised ligand	100
EPHB6 (Homo sapiens, UniProt O15197)	competition with immobilised ligand	95
PIK3CA (Homo sapiens, UniProt P42336, E542K)	–	90
ACVR2A (Homo sapiens, UniProt P27037)	competition with immobilised ligand	90

Series 4 — effect on: binding; action: competitor; method: NanoBRET; cell line: HEK293
Structure (SMILES): CN1CCC[C@H]1COc1nc2c(c(N3CCN(S(C)(=O)=O)[C@@H](CC#N)C3)n1)CCN(c1cccc3cccc(Cl)c13)C2
KRAS Q61R: GTPase KRas (KRAS, Homo sapiens, UniProt P01116, Q61R)
KRAS Q61L: GTPase KRas (KRAS, Homo sapiens, UniProt P01116, Q61L)
target	concentration	normalized BRET
KRAS Q61R	1.69 nM	93.1% and 98.6% and 85.6%
KRAS Q61L	1.69 nM	109% and 98.7% and 99.3%
KRAS Q61L	3.7 µM	36.3% and 30.7% and 28.8%
KRAS Q61R	11.1 µM	67.8% and 90.4% and 65.4%
KRAS Q61L	137 nM	80.3% and 81.8% and 96%

Series 5 — cell line: mouse MPNST tumor cells; method: high-content nuclear imaging; refers to: cell number; concentration: 10 µM; time: 12 h; setting: mean of 2 replicates; relative to: plate mean; direction: higher = more cells
SMILES	nuclei count
COc1ccccc1S(=O)(=O)Nc1ccc2c(c1)CN(C)C(=O)N2	-1.45 z-score
O=C1CN2Cc3c(ccc(Cl)c3Cl)N=C2N1	-0.369 z-score
CC(C)[C@H](O)C(=O)N[C@@H](C)C(=O)N[C@@H]1C(=O)N(C)CCc2ccccc21	-0.059 z-score
CC(CNS(=O)(=O)C(C)C)c1ccc(-c2ccc(C#N)cc2)cc1 (centres unmarked)	-1.07 z-score
CCN1CCN(c2cc3c(cc2F)c(=O)c(C(=O)O)cn3C2CC2)CC1	-0.532 z-score and 0.265 z-score
Cc1cc(C2CCCCC2)n(O)c(=O)c1	-3.77 z-score and -1.48 z-score
C[C@H]1Oc2cc(cnc2N)-c2c(nn(C)c2C#N)CN(C)C(=O)c2ccc(F)cc21	2.93 z-score
O[C@@H](COc1cccc2ncccc12)CN1CCN([C@@H]2c3ccccc3[C@@H]3[C@H](c4ccccc42)C3(F)F)CC1	-4.14 z-score
CNc1nc(Nc2ccc(C(=O)N3CCOCC3)cc2OC)nc2[nH]cc(Cl)c12	1.11 z-score

Other studies, line by line
Compound	cell line	concentration	time	endpoint	value
O=C(O)CCCN1CCC(O[C@@H](c2ccc(Cl)cc2)c2ccccn2)CC1	A-375	100 µM	60 h	viability	76.4%
